Assay results from different studies.
Numbered parts are unrelated; each lists some results of a single study. Positions count from the first letter of the parent shown.

Series 1 — target: CCNE2, cyclin fold, Cln2 fusion (human); method: yeast growth competition, sequencing; matrix: yeast; notes: strong parent motif; relative to: not given; direction: higher = stronger binding
Starting sequence: CDKN1A docking peptide (human); SKACRRLFGPVDS
`V11T` — result for “normalised enrichment score”: 4.37.
For `G9W`, “normalised enrichment score” read 3.8.
`V11P` — result for “normalised enrichment score”: 3.82.
`D12F`: “normalised enrichment score” 2.21.
Under “normalised enrichment score”, `P10C` is recorded as 2.91.
`G9I` — result for “normalised enrichment score”: 3.55.
`P10I`: “normalised enrichment score” 2.69.
Under “normalised enrichment score”, `A3P` is recorded as 1.73.
For `R6E`, “normalised enrichment score” read 0.751.
For `D12T`, “normalised enrichment score” read 3.01.
`P10T`: “normalised enrichment score” 3.58.
`R5K F8L` — result for “normalised enrichment score”: 0.174.
`F8P` — result for “normalised enrichment score”: 0.167.
Under “normalised enrichment score”, `K2S` is recorded as 3.97.
`G9N` — result for “normalised enrichment score”: 3.46.
`G9F`: “normalised enrichment score” 4.83.

Series 2 — method: RNA Bind-n-Seq; form: RNA; matrix: in vitro; concentration: 100 nM; relative to: input RNA pool; direction: higher = stronger binding
Target: RING finger protein unkempt homolog, zinc fingers 1-6, SBP tag (UNK, Homo sapiens, UniProt Q9C0B0, residues 30-357)
Chain of UniProt Q9C0B0 (30-357, looked up): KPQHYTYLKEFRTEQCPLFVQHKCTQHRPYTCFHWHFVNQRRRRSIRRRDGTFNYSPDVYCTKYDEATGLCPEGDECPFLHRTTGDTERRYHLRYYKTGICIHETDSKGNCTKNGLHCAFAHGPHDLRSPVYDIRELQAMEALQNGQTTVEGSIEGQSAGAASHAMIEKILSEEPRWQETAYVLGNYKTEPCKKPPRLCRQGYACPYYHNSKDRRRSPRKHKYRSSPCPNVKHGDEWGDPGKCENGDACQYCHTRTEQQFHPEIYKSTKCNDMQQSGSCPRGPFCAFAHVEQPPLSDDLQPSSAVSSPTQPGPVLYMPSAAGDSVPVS
Notes: RNA with constant flanks, vertebrate orthologous sites, ends assumed
The bound/input enrichment of `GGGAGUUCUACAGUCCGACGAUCUCACAAUCUCUACUAAGUAGGUUUUUACAUACCAAGUUAAGCCUUCAUUUUACAUAUUUACAGCUUUUCUCCGGAGGAGAUAAAAGAAUCUCAUGCUUCAAGUUACAUGUGGUCUUUGCCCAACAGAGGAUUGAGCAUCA` is reported as 0.413 ratio.
With `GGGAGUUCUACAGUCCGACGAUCCUCCCUGUCACUGUGAUAUUUAAAAUAUGCACAGUCUUAAUUUUGUUUCCCAAACGAUUCUAGUAAUUUCCCAGCAAUAGCUCUCUCUUACCUGUUAUUUAUCAAUUCCCCCACUUCCCCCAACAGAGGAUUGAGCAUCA` the bound/input enrichment was 3.52 ratio.
With `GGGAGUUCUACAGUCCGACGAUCGUCCCUCAGUGAUAGUAUGCCAUCUGUAGCAGAUUCCCACUCAAGUCAUUUUUCUGAAUUUAGUUGUUCUGACUUAGAAAGCAUGAAAACUUCAUGUAGUCACGGUUCUAGUGAUUAUCACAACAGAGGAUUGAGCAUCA` the bound/input enrichment was 0.598 ratio.
For `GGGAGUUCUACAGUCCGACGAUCUCAUAUUGUAAGUAGAGAAAUCUUCAUUGACCCCAUUGUGAAAUUUCCUAGCAAUUUAUUUAGAAUCUUAGCUUUUCUAAUUAAAGCUCACUGUAUUAGUCAAUUUUAUCAUAAUUAAACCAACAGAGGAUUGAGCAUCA`, the bound/input enrichment was 2.14 ratio.
`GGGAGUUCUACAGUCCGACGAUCGACGUCUGCUCUAUUACAAAGAUAAGAAACGGUCCCACAAAUUAAAAAAAUAAUAAUAAAUGGCUAUUUUUGAAAUUCAAAUAUUUAAAUUUUGUAAAUCAGCUGCUUAGGACACCAUGUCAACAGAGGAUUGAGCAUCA` gave a bound/input enrichment of 0.27 ratio.
`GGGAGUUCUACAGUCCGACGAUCUCUAUACAAUUUAAAAAAUAUUUCCUCAUAGGAUGCUUUGGCCUUUCAUCUAUUUAAUCAUAGCUACAUAUCUAUUUUUUAUAAGUAGCAGUACACAUUCAAAGGGGUAUUCCUAGCUCACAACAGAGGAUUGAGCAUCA` has a bound/input enrichment of 0.435 ratio.
The bound/input enrichment of `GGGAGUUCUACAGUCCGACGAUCCAGCUGAUUCACUCAUUGGGAGAGCUGCACAUAUAGCUGUUCUUGAUUCGGAAAUAUUUUUAGAGAAAUUCUUUCUGGUUGCUGCCCUCAAAUAUUUCCAAUAGGAUAAAAACAUUGUUACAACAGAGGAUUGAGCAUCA` is reported as 1.3 ratio.
`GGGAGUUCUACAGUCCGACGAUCUGGGUUACUCCUAUUAUCAUCAAGUAGCUGGAAUUGUGAAGGUCGGAGUAGUUAGAUCUUUAGCUUUUAUUCCUUCCUUUUUUUGUAUUCCUAUCCAUGUGUAUAAAUUAUUGAUCAUGUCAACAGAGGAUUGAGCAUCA` has a bound/input enrichment of 1.14 ratio.

Series 3 — method: protein binding microarray; form: double-stranded DNA, one strand shown; matrix: in vitro; concentration: not given; relative to: not given; direction: higher = stronger binding
Target: Histone acetyltransferase KAT6A, winged helix 2, GST fusion (KAT6A, Homo sapiens, UniProt Q92794, residues 85-181)
Notes: 8-mer, flanks averaged, mean of 2 arrays, mostly near background
Target sequence (chain): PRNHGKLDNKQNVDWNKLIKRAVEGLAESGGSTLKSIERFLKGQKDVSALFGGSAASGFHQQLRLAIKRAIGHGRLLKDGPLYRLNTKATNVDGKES
For `TAGGACCA`, the E-score was -0.0388.
For `TAGAACTA`, the E-score was 0.11.
The E-score of `GATAATGC` is reported as -0.00353.
`AGTGGTGA` gave an E-score of -0.0483.
With `AGTTACAT` the E-score was -0.165.
For `CAAAAAGA`, the E-score was 0.102.
`GTACAATA` gave an E-score of 0.0142.
For `ACACTTAA`, the E-score was -0.0948.
`CATTATCC` has an E-score of 0.0363.
For `CTCGTCAC`, the E-score was 0.142.
The E-score of `CACGGCGC` is reported as 0.199.
With `AGACCCTA` the E-score was -0.189.
`CATCGATA` has an E-score of -0.0191.
`CATGGGCG` has an E-score of 0.176.
For `TTACCAAA`, the E-score was 0.00301.
For `AATTCGAA`, the E-score was -0.053.
`AAAAGTGT` has an E-score of -0.149.
For `CTAGTATA`, the E-score was 0.00046.
For `TAAGGTGA`, the E-score was -0.0587.
For `AGTGTCAG`, the E-score was -0.0114.
`CATTAATC` gave an E-score of -0.0158.
`AAAGACCG` gave an E-score of -0.0953.
`GATTAAAA` gave an E-score of 0.215.
With `AACTACCC` the E-score was -0.0767.
`TACCCGGA` gave an E-score of 0.181.

Series 4 — method: RNA Bind-n-Seq; form: RNA; matrix: in vitro; concentration: 365 nM; relative to: no-protein control; direction: higher = stronger binding
Target: RNA binding protein fox-1 homolog 2, RRM domain, GST-SBP tag (RBFOX2, Homo sapiens, UniProt O43251-10, residues 100-194)
Notes: natural RNA segment, single round, ends assumed
Residues (chain): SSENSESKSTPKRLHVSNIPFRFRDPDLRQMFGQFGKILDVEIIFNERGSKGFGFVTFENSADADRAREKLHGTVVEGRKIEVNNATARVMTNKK
For `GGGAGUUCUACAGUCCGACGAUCCUGUCUGUCUAUGUAUCUGUCUAUCUAUCUAUAUAUAUAUUCAGCUUCUUUACUGCUACCUACACAUUUUUCUCCAAAUUUUAUUAAUUUCAUAGUGUUUUGAUUUGGGUUGGAAUUCUCGGGUGCCAA`, “RBNS enrichment (R)” read 0.824.
`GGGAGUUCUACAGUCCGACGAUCGAUAAUUUGUUAGCUGGAACCUAUUCACUUCCGAGAUUCAGACAUAGCCAUGCUGGUGGCCUUCUGAAUCACUGCAUGGAUGUCCCAGGAGGCAGCUCUCCCCACACAGCUGGAAUUCUCGGGUGCCAA`: “RBNS enrichment (R)” 1.31.
For `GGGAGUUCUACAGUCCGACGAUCACAACAGUGUGUAUGCAGCCGUGCUUACAGCCUGUGGUUGCUACCUGUUGUACCAGUCUGACCAGUGUUUGGAAUGUUCAGACAUAAUCUCCUGUGUGAAGCUCAAGGUCUGGAAUUCUCGGGUGCCAA`, “RBNS enrichment (R)” read 0.549.
`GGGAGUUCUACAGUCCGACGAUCGGCUCGGAGCUUGAAGCUCUUUGAUCCUGAAGUUUGAAUUCCCCUCUGCCUCCCGGCCUGGGCUUGUUCUCAGGUCAGCCGCUGCUUUGUUCACUAUCAGUCUGGAGUGAUGGAAUUCUCGGGUGCCAA`: “RBNS enrichment (R)” 0.419.
For `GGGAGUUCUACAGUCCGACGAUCCACACUCUAAGUUCUAUUGAACCUAGGACUUGAGCCUCCAUUUCUGGCUUCUAGUCUGGUGUUCUGAGUACUUGAUUUCAGGUCAAUAACGGUCCCCCCUCACUCCACACUGGAAUUCUCGGGUGCCAA`, “RBNS enrichment (R)” read 0.246.
`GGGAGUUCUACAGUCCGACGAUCCUAGCAGUCACUUGAUCUCCGUGGCUUUGGUUUAAAAGACACACUUGUCCACAUAGGUUUAGAGAUAAGAGUUGGCUGGUCAACUUGAGCAUGUUACUGACAGAGGGGGUUGGAAUUCUCGGGUGCCAA` — result for “RBNS enrichment (R)”: 4.62.
Under “RBNS enrichment (R)”, `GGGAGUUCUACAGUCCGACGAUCGUGCUGUAGGUAACGUGUGGCACUGCUGGCAAAUGAAGGUCAUGAGAUGAGUUCCUUGUAGGUACCAGCUUCUGGCUCAAGAGUUGAAGGUGCCAUCGCAGGGUCAGGCCUGGAAUUCUCGGGUGCCAA` is recorded as 0.519.
`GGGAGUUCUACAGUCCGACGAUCUUUGAGAAAAUGCACAAAGCUCUGGGAGAAAGCAGCUACCAAGACUAUCUGGAACUGUGUCUGUCAGACCAAUGGUACCAGGGAGGCUGCAGUGCUGCCAGCUUUUCAAGUGGAAUUCUCGGGUGCCAA` — result for “RBNS enrichment (R)”: 0.383.
